{"data": "Measurements pooled from the literature", "note": "Each line is one published result; not all experiments were run side by side. ± gives the spread as reported."}
{"Structure (SMILES)": "CCCCCCCC(=O)OC[C@H](NC(=O)[C@H](CO)NC(=O)CN)C(=O)N[C@@H](Cc1ccccc1)C(=O)N[C@@H](CC(C)C)C(=O)N[C@@H](CO)C(=O)N1CCC[C@H]1C(=O)N[C@@H](CCC(=O)O)C(=O)N[C@@H](Cc1cnc[nH]1)C(=O)N[C@@H](CCC(N)=O)C(=O)N[C@@H](CCCNC(=N)N)C(=O)N[C@H](C(=O)N[C@@H](CCC(N)=O)C(=O)N[C@@H](CCC(N)=O)C(=O)N[C@@H](CCCNC(=N)N)C(=O)N[C@@H](CCCCN)C(=O)N[C@@H](CCC(=O)O)C(=O)N[C@@H](CO)C(=O)N[C@@H](CCCCN)C(=O)N[C@@H](CCCCN)C(=O)N1CCC[C@H]1C(=O)N1CCC[C@H]1C(=O)N[C@@H](C)C(=O)N[C@@H](CCCCN)C(=O)N[C@@H](CC(C)C)C(=O)N[C@@H](CCC(N)=O)C(=O)N1CCC[C@H]1C(=O)N[C@@H](CCCNC(=N)N)C(=O)O)C(C)C", "system": "chronic HFrEF patients", "conditions": "intravenous infusion, 0.1 µg/kg/min, end of 120 min infusion", "endpoint": "diastolic blood pressure", "value": "56.1 ± 10.3 mmHg"}
{"Structure (SMILES)": "CCC(=O)N[C@@H](C)C(=O)OCC(=O)N[C@@H](C)C(=O)O", "system": "water", "conditions": "pH 5, 65 °C", "endpoint": "depolymerization half-life", "value": "49.8 h"}
{"Structure (SMILES)": "C#CC(C)NC(=O)C(CC(C)(C)F)NC(c1ccc(-c2ccc(S(C)(=O)=O)cc2)cc1)C(F)(F)F (stereo not shown)", "test": "LC-MS UV trace", "system": "aqueous buffer", "conditions": "concentration not given, 23 h, pH 5.5, 37 °C, together with: cysteine 10 mM", "endpoint": "cysteine adduct formation", "value": "< 1%"}
{"Structure (SMILES)": "O=[11C](OC(C(F)(F)F)C(F)(F)F)N1CCC(CNS(=O)(=O)c2ccc(Cl)cc2)CC1", "test": "PET", "system": "Sprague-Dawley rat, brain", "conditions": "intravenous, dose not given, after 10 min, scan 60 min", "endpoint": "plateau brain radioactivity", "value": "1.5 SUV"}
{"Structure (SMILES)": "Cc1ccc(OCC(=O)Nc2cc[nH]n2)cc1", "test": "LC-MS EIC", "system": "human liver microsomes, pooled, both sexes", "conditions": "10 µM, 60 min", "scale": "baseline: reference compound at start", "endpoint": "relative peak area", "value": "8.68%"}
{"Structure (SMILES)": "CC(C)CCN(c1nc(C#N)nc(NC2COC2)n1)C(C)c1ccc(F)cc1 (stereo not shown)", "system": "female CD-1 mice", "conditions": "intraperitoneal, 10 mg/kg, 2 h", "endpoint": "brain concentration", "value": "82.5 ng/g"}
{"Structure (SMILES)": "N=C(N)NCCC[C@H](NC(=O)COC(=O)[C@H](Cc1ccccc1)NC(=O)OCC1c2ccccc2-c2ccccc21)C(=O)NCC(=O)N[C@@H](CC(=O)O)C(=O)O", "test": "HPLC", "system": "hydrogel by solvent exchange", "conditions": "37 °C", "endpoint": "linear degradation phase duration", "value": "~50 days"}
{"Structure (SMILES)": "CCCC[C@H](NC(=O)CNC(=O)CNC(=O)CN1CCN(CC(=O)O)CCN(CC(=O)O)CCN(CC(=O)O)CC1)C(=O)N[C@H]1CC(=O)NCCCC[C@@H](C(N)=O)NC(=O)[C@H](Cc2c[nH]c3ccccc23)NC(=O)[C@H](CCCNC(=N)N)NC(=O)[C@@H](Cc2ccccc2)NC(=O)[C@H](Cc2c[nH]cn2)NC1=O [gallium-67 labelled]", "system": "female C57 mice, B16/F1 melanoma", "conditions": "intravenous, 0.037 MBq, 4 h", "scale": "baseline: tumour over lung", "endpoint": "tumour to tissue ratio", "value": 70}
{"Structure (SMILES)": "C=C(C)c1ccc([C@H]2C[C@@]3(C)[C@@H](CC[C@@]3(O)C(F)(F)C(F)(F)F)[C@@H]3CCC4=CC(=O)CCC4=C32)cc1", "system": "human liver microsomes", "conditions": "100 % absorption assumed", "endpoint": "maximal oral bioavailability", "value": "28%"}
{"Structure (SMILES)": "NC[C@@H](C(=O)Nc1ccc(-c2cn[nH]c2)cc1)c1ccccc1", "test": "OECD 405 eye irritation", "system": "New Zealand White rabbit, eye", "conditions": "topical, 0.1%, 49 h (day 3), scale 0 to 4", "scale": "direction not given", "endpoint": "cornea score", "value": 0}
{"Structure (SMILES)": "COc1cc(NC(C)=O)c2c(c1O)-c1c(OC)c(OC)cc3c1C(C2)N(C)CC3 (stereo not shown)", "system": "rat, plasma", "conditions": "100 µg/mL, time not given, -20 °C to room temperature, three freeze-thaw cycles", "endpoint": "remaining compound", "value": "102 ± 4.2%"}
{"Structure (SMILES)": "CC(=O)N[C@H](CC(=O)O)C(=O)N[C@H](Cc1c[nH]c2ccccc12)C(=O)N[C@H](Cc1ccccc1)C(=O)N[C@H](CCCCN)C(=O)N[C@H](C)C(=O)N[C@H](Cc1ccccc1)C(=O)N[C@H](Cc1ccc(O)cc1)C(=O)N[C@H](CC(=O)O)C(=O)N[C@H](CCCCN)C(=O)N[C@@H](C(=O)N[C@H](C)C(=O)N[C@H](CCC(=O)O)C(=O)N[C@H](CCCCN)C(=O)N[C@H](Cc1ccccc1)C(=O)N[C@H](CCCCN)C(=O)N[C@H](CCC(=O)O)C(=O)N[C@H](C)C(=O)N[C@H](Cc1ccccc1)C(N)=O)C(C)C", "system": "statin-treated high-risk CHD women, plasma", "conditions": "oral, 500 mg daily, day 1, 0 to 2 h, mean, all subjects", "endpoint": "AUC(0-t)", "value": "247 ng·h/mL"}
{"Structure (SMILES)": "CC(=O)N[C@H](CSSC[C@H](N)C(=O)O)C(=O)N[C@H](C)C(=O)N[C@H](CCCNC(=N)N)C(=O)N[C@H](CCCNC(=N)N)C(=O)N[C@H](CCCNC(=N)N)C(=O)N[C@H](C)C(=O)N[C@H](CCCNC(=N)N)C(N)=O", "system": "male human, plasma", "conditions": "intravenous, 10 mg, single dose, healthy volunteers", "endpoint": "half-life", "value": "18.3 h"}
{"Structure (SMILES)": "Cn1c(=O)oc2ccc(-c3ccc(CC(C#N)NC(=O)C4CNCCCO4)c(F)c3)cc21 (stereo not shown)", "test": "item: alanine aminotransferase increased", "system": "human", "conditions": "40 mg single dose, fasted", "endpoint": "subjects with TRAE", "value": "16.7%"}
{"Structure (SMILES)": "OCc1cn(Cc2ccc(-c3noc(-c4ccc(OCC[18F])c(C(F)(F)F)c4)n3)cc2)nn1", "system": "rat, brain", "conditions": "intravenous, 5 min", "endpoint": "tracer uptake", "value": "0.49 %ID/g"}
{"Structure (SMILES)": "CCCCN1C(=O)c2cccc3c(NCCCCCCCCN4CCOCC4)ccc(c23)C1=O", "system": "aqueous medium", "conditions": "pH 6", "endpoint": "average fluorescence lifetime", "value": "4.1 ns"}
{"Structure (SMILES)": "[2H]C([2H])([2H])NC(=O)c1ccc(N2C(=S)N(c3ccc(C#N)c(C(F)(F)F)c3)C(=O)C2(C)C)cc1F", "system": "human, plasma", "conditions": "oral, 160 mg, fed, single dose", "endpoint": "CL/F", "value": "238 ± 59.1 mL/h"}
{"Structure (SMILES)": "C[C@]12C[C@H](c3ccc(C(N)=O)cc3)C3=C4CCC(=O)C=C4CC[C@H]3[C@@H]1CC[C@@]2(O)C(F)(F)C(F)(F)F", "system": "human liver microsomes", "conditions": "100 % absorption assumed", "endpoint": "maximal oral bioavailability", "value": "75%"}
{"Structure (SMILES)": "NCCCC(=O)OCC(=O)c1ccc(O)c(C(F)(F)F)c1", "test": "pump-probe transient absorption", "system": "10% acetonitrile in water", "endpoint": "triplet lifetime", "value": "0.39 ns"}
{"Structure (SMILES)": "CCOc1ccc2c(c1)C(C)=CC(C)(C)N2c1cc(OCC)cc2c1NC(C)(C)C=C2C", "test": "LC-MS/MS", "system": "piglets, subcutaneous fat", "conditions": "oral in feed, 50 mg/kg feed ethoxyquin, 42 days", "endpoint": "tissue residue", "value": "863 ± 392 ng/g"}
{"Structure (SMILES)": "COC1C=COC2(C)Oc3c(C)c(O)c4c(c3C2=O)C2=NC3(CCN(CC(C)C)CC3)NC2=C(NC(=O)C(C)=CC=CC(C)C(O)C(C)C(O)C(C)C(OC(=O)Nc2cccnn2)C1C)C4=O (stereo not shown)", "system": "CD-1 mouse female, plasma", "conditions": "oral, 10 mg/kg", "endpoint": "fAUC/MIC ratio", "value": 64}
{"Structure (SMILES)": "CC1=C(C2=C(C)C(=O)c3c(cc(O)c(O)c3Cc3ccccc3)C2=O)C(=O)c2cc(O)c(O)c(Cc3ccccc3)c2C1=O (single isomer, unassigned)", "system": "solid", "conditions": "100 days, room temperature", "endpoint": "degraded compound", "value": "5 ± 0.5%"}
{"Structure (SMILES)": "NS(=O)(=O)c1ccc(N2N=C(C(F)(F)F)CC2c2ccc(F)cc2F)cc1 (stereo not shown)", "system": "Beagle dog, both sexes, plasma", "conditions": "oral, 1 mg/kg, single dose", "endpoint": "AUC(0-24h)", "value": "5280 ± 2300 ng·h/mL"}
{"Structure (SMILES)": "CN1CCC[C@]1(C)/C=C/S(=O)(=O)NC(=O)Nc1c2c(cc3c1CCC3)CCC2", "system": "human, plasma", "conditions": "oral, 400 mg, single dose, healthy volunteers", "endpoint": "Cmax", "value": "45100 ng/mL"}
{"Structure (SMILES)": "CCCC[C@@H]1NC(=O)[C@@H](NC(=O)[C@H](CCC(=O)O)NC(=O)CNC(=O)CN2CCN(CC(=O)O)CCN(CC(=O)O)CCN(CC(=O)O)CC2)CCCCNC(=O)C[C@@H](C(N)=O)NC(=O)[C@H](C(C)C)NC(=O)[C@@H]2CCCN2C(=O)[C@H](CCCNC(=N)N)NC(=O)CNC(=O)[C@H](Cc2c[nH]c3ccccc23)NC(=O)[C@H](CCCNC(=N)N)NC(=O)[C@@H](Cc2ccccc2)NC(=O)[C@H](Cc2c[nH]cn2)NC(=O)[C@H](CCC(=O)O)NC1=O [gallium-67 labelled]", "system": "C57 mice, B16/F10 lung metastases", "conditions": "intravenous, 0.037 MBq, 2 h", "endpoint": "urine excretion", "value": "90.55 ± 0.38%"}
{"Structure (SMILES)": "CC(=O)N[C@H](C)c1cc(Cl)ccc1Cn1c(=S)[nH]c(=O)c2[nH]ccc21", "system": "Sprague-Dawley rat, male, plasma", "conditions": "oral, 125 mg/kg/day", "scale": "baseline: rat over human 10 mg", "endpoint": "exposure ratio", "value": 1.2}
{"Structure (SMILES)": "CC(C)c1cnc(-c2cc(Cl)ccc2F)cc1Nc1ccncc1C(=O)NC(CO)CO", "test": "monotherapy, item: rash", "system": "human patients", "conditions": "oral, dose not given, grade 1, phase I A", "endpoint": "patients with treatment-related adverse event", "value": "7.1%"}
{"Structure (SMILES)": "COc1cc2c(cc1OC)CN(CCCCn1ccc3cc(OCC[18F])ccc31)C2", "system": "male ICR mice", "conditions": "intravenous, 15 min post-injection", "endpoint": "spleen uptake", "value": "11.3 ± 1.27 %ID/g"}
